Experimental data pooled from the literature.
Every numbered part comes from another study and shows a few of its results, in no order.

Block 1
Target: Interferon regulatory factor 3, full length, phosphomimetic (IRF3, Homo sapiens, UniProt Q14653, residues 1-427, S386D/S396D/S398D/S402D/T404D/S405D)
Method: protein-binding microarray
Molecule type: double-stranded DNA, one strand shown
Medium: in vitro
Tested at: 2540 nM top
Setting: 60-bp whole probe
Added: salmon DNA 0.4 mg/ml
Relative to: random background probes
Reading: higher = stronger binding
Shared flanks, not repeated: GCCTAGCAC … GTCTTGATTCGCTTGACGCTGCTG
Construct (chain): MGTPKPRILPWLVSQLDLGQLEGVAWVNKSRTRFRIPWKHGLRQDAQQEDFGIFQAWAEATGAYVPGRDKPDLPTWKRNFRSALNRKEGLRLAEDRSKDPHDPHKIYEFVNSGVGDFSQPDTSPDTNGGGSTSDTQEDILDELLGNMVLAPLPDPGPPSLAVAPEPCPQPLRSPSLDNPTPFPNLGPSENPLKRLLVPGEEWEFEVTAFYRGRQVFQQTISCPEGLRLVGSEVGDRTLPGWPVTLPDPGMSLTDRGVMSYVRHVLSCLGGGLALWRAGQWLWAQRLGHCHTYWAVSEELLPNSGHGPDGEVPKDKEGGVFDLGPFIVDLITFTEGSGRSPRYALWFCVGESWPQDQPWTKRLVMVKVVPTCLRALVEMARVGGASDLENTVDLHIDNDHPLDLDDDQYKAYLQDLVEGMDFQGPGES
For `GACGATTTCAGTCTCGAGGCGTGCTAG`, “fitted relative affinity” read 2.34 z-score.
`TCTGTTTTTGCTTTCTTTTTGTGCTAG` — result for “fitted relative affinity”: 2.6 z-score.
Under “fitted relative affinity”, `GACGGTTCCGGGTATCGGGACGTGCTA` is recorded as 1.47 z-score.
For `TAGCGTATATTCCCTAGAATAGTGCTA`, “fitted relative affinity” read -0.209 z-score.
`GACGCACTGGGTTTCGGGACGTGCTAG` — result for “fitted relative affinity”: 1.17 z-score.
For `AGCACTCTTCTTTTTTTTCTGTGCTAG`, “fitted relative affinity” read 0.921 z-score.
`TCATCTTCCCCTCTCATACTGTGCTAG`: “fitted relative affinity” 1.91 z-score.

Block 2
Target: Sal-like protein 4, full length isoform B (SALL4, Homo sapiens, UniProt Q9UJQ4-2, residues 1-616)
Method: universal PBM
Molecule type: double-stranded DNA, one strand shown
Medium: in vitro
Tested at: not given
Setting: 8-mer, flanks averaged, mean of replicates
Reading: higher = stronger binding
`ACCCATGA` gave an E-score of -0.156.
The E-score of `GGTGGCTA` is reported as -0.197.
With `GCGCGCAA` the E-score was -0.132.
`ATTTCGGC` has an E-score of 0.0665.
For `CAGGTATC`, the E-score was 0.066.
`GCTATACC` has an E-score of -0.112.
For `CCACGACG`, the E-score was -0.2.
With `ACTGGGGG` the E-score was -0.23.

Block 3
Target: RING finger protein unkempt homolog, zinc fingers 1-6, GST-SBP tag (UNK, Homo sapiens, UniProt Q9C0B0, residues 30-357)
Chain of UniProt Q9C0B0 (30-357, looked up): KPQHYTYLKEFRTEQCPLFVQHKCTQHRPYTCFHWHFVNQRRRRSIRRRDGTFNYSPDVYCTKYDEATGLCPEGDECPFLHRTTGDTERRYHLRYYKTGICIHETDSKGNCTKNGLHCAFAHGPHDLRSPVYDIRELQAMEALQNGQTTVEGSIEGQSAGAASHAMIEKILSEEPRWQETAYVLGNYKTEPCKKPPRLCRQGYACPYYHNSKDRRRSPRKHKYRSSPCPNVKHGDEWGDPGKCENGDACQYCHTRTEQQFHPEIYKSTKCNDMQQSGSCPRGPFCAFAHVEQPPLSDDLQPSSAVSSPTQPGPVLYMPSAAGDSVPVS
Method: RNA Bind-n-Seq
Molecule type: RNA
Medium: in vitro
Tested at: not given
Setting: RNA with constant flanks, human and mouse sites, ends assumed
Relative to: input RNA pool
Reading: higher = stronger binding
The bound/input enrichment of `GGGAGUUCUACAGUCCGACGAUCAAUAAUCUUCAAAAGUAUAUAGAGAUAUAUGUACAGAAGGUGAAUCCAAGUCGACUUCCUGUAGUUAUUGGAGGAUUACUUGAUGUUGACUGUUCUGAAGAUGUCAUAAAAAACUUGAUUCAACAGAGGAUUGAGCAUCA` is reported as 0.262 ratio.
The bound/input enrichment of `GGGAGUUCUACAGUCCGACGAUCGAUAUUGUGCUUGCCAUCCUCGAAUUACUUAAGUAUCAUCAGAGAGUCUUAUAUAUUGACAUAGACAUCCACCAUGGUGAUGGUGUUGAGGAAGCUUUUUAUACAACAGAUCGCGUGAUGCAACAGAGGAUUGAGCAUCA` is reported as 0.348 ratio.
`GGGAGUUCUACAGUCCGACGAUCCUGCUGGAGGAUUCCAGUGCUGGGGAAGACAGUGUUCAUGACAGGUUUAUAGGUCCGCUUCCAAGAGAAGGUUCUGGGGGUUCUACCAGUGAUUAUGUCAGCCAAAGCUACUCCUACUCACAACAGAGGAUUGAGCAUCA` gave a bound/input enrichment of 0.115 ratio.
With `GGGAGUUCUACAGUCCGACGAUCUGGUUUUUGCAGGAAGAAAAAAGAGAGUGCUUUGGAGCUUGUCUGUUUACCUGUUACGAUCUUUUAAGGCCAGAUGUCGUCCUAGAAACUGCAUGGAGGCACAAUAUCAUGGAUUUUGCCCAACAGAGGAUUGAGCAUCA` the bound/input enrichment was 0.35 ratio.
For `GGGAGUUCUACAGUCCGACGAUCUUGUUCCAUGAAUAUCUUUCUUAAGAAGUGUUACCUUGUUAAAGUGACUACCAUUCUAAACCAUUUUUAAGUGGUCUGGACAGUGAGUUUACAGUUUCAUAUCAACUAUCUAAAACCUAACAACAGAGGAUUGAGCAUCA`, the bound/input enrichment was 0.148 ratio.
For `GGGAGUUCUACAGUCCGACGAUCUUCAGGACUUUUCUUGGGGUUUCAGAAUGGGUUUAUAUGAUUUUCUUUAUUAUUUUUUGGUAGUUUUAUUUAUUCUAUCAGUCUUUUUAACAAAUGUUUAUUGCUGCACCUCCUCCCCAGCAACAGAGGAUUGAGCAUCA`, the bound/input enrichment was 26.5 ratio.

Mixed results
`PhoQ, residues 284 288 289 292 302 303 GANMMA` gave a fold induction of 36.1 (PhoP, residues 12 14 15 18 19 LYHSL (Escherichia coli, UniProt P23836); Sort-seq, measured: YFP reporter; E. coli; PhoQ-PhoP variant library, added: 10 µM Mg2+; relative to: high Mg2+ state, higher = stronger signaling).

A few entries again (block 1):
`TCATCTTCCCCTCTCATACTGTGCTAG`: “fitted relative affinity” 1.91 z-score.
For `TAGCGTATATTCCCTAGAATAGTGCTA`, “fitted relative affinity” read -0.209 z-score.
